# Measured values collected from several papers.
# Target: D(2) dopamine receptor (DRD2, Homo sapiens, UniProt P14416)
# Sequence of UniProt P14416 (whole entry, looked up): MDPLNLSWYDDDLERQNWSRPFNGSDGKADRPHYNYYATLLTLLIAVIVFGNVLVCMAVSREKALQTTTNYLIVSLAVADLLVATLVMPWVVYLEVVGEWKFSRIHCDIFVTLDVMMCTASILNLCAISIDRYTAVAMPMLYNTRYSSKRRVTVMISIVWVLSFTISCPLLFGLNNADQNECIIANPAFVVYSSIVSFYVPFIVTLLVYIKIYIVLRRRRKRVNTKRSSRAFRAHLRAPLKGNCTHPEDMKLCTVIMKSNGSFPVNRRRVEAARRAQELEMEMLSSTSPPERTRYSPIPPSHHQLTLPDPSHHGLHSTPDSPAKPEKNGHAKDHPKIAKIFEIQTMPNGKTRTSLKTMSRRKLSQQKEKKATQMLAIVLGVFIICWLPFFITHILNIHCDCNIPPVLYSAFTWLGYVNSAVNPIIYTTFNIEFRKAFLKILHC
Structure (SMILES),read-out,action,method,concentration,notes,inhibition
C[Si](C)(C)C[C@@H](CN)CC(=O)O,ligand displacement,,radioligand,75 µM,,-4%
COc1cc(CNCCc2ccc(F)cc2)cc(Cl)c1OCC(N)=O,enzyme activity,inhibitor,,10 µM,,27.9%
C[Si]1(C[C@H](CN)CC(=O)O)CCCC1,ligand displacement,,radioligand,70 µM,,3%
COc1ccc(S(=O)(=O)N2CCc3ccccc3C2)cc1N1CCN(C(=O)c2ccc(F)cc2C(F)(F)F)CC1,ligand displacement,,radioligand,1 µM,,-4.4%
NS(=O)(=O)c1ccc(CCNCc2ccc(-c3ccccc3F)o2)cc1,enzyme activity,inhibitor,,10 µM,,22.5%
Brc1ccccc1-c1nnc(CSc2nnnn2-c2ccccc2)o1,ligand displacement,,radioligand,10 µM,,-13%
CC1Cc2ccccc2N1C(=O)CN1CCN(c2ccccc2)CC1 (stereo not drawn),ligand displacement,,radioligand,10 µM,,2%
COc1ccc(C(=O)Nc2c(-c3cccs3)nc3ccccn23)cc1,ligand displacement,,radioligand,10 µM,,< 50%
CO[C@@H](C)c1c(NC(=O)Nc2cnc(-n3nccn3)c(C(F)(F)F)c2)cnc2sc(C)nc12,ligand displacement,,radioligand,10 µM,,0.5%
NS(=O)(=O)c1ccc(CCNCc2ccc(-c3ccc(Cl)cc3)o2)cc1,enzyme activity,inhibitor,,10 µM,,23.1%
Cc1ccnc(OC[C@H]2CN(CCN3CCc4ccccc43)CCO2)c1,ligand displacement,,radioligand,10 µM,,0.3%
CCn1c2ccccc2c2cc(CNCCCn3ccnc3)ccc21,enzyme activity,inhibitor,,10 µM,,34%
O=C1c2sc(-c3ccc(N4CCC(CO)CC4)nc3F)nc2CCN1c1cccnc1,ligand displacement,,radioligand,1 µM,,5%
COc1cc(C(C)=O)ccc1OCC(O)CN1CCN(c2cccc(Cl)c2)CC1 (stereo not drawn),enzyme activity,inhibitor,,10 µM,,10.2%
Cc1[nH]nc2c1N=C(c1ccccc1Cl)c1cnc(N3CCOCC3)cc1N2,,,,10 µM,human off-target panel,0%

# Repeated from above:
Structure (SMILES),read-out,action,method,concentration,notes,inhibition
CO[C@@H](C)c1c(NC(=O)Nc2cnc(-n3nccn3)c(C(F)(F)F)c2)cnc2sc(C)nc12,ligand displacement,,radioligand,10 µM,,0.5%
